Measurements from different studies.
Parts stem from different laboratories: compare values within a part only. Several values in a cell are separate wells, animals, samples, runs or records.

Block 1
SMILES: Cc1ccc(O)c(C)c1-c1cnc2[nH]c(-c3cnc(N4CCC5(CC4)CC(N4CCN(c6ccc(N[C@H]7CCC(=O)NC7=O)cc6F)CC4)CO5)nc3)cc2c1C#N (single isomer, unassigned)
PKMYT1: Membrane-associated tyrosine- and threonine-specific cdc2-inhibitory kinase (PKMYT1, Homo sapiens, UniProt Q99640)
UniProt Q99640, sequence (whole entry, looked up): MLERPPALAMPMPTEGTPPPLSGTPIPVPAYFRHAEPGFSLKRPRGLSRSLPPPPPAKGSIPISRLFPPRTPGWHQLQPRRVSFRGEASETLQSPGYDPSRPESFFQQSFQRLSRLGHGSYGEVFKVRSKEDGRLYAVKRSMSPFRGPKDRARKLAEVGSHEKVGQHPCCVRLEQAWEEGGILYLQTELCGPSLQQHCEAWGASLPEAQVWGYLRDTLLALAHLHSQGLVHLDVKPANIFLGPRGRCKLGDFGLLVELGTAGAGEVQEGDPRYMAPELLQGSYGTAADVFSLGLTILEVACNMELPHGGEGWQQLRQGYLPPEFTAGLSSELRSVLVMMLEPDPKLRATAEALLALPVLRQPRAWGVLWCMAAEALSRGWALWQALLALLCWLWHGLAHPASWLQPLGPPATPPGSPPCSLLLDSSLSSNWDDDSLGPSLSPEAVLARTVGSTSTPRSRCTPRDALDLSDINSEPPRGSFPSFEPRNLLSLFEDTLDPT
target or system	test	system	setting	inhibition
KLE	cell proliferation	–	41.15 nM	-2.65% and 1.11% and -2.41%
NCI-H1568	cell growth	–	123.5 nM	8.92%
–	automated immunoblotting, measured: CDK1 phospho-Thr14	mouse, HCC1569 xenograft, tumour	dose not given, 144 h	63.5% and 54.2% and 43.4% and 47.2% and 48.4% and 36.2%
PKMYT1	binding, HTRF	–	0.51 nM	7.26% and 12.8%
PKMYT1	enzyme activity, inhibitor	–	0.1111 µM	95.9%
KLE	cell proliferation	–	1111.11 nM	84.2%
HCC1569	automated capillary immunoblot, measured: CDK1 phospho-Thr14	–	0.15 nM, 24 h	14.9%
HCC1569	cell proliferation	–	3333.33 nM	92.9%
PKMYT1	enzyme activity, inhibitor	–	13.72 nM	81.3%

Block 2
Compound: C[C@@H]1CN(c2ccc(-c3cc(C(=O)NCCOCCOCCOCCOCCOCCOCCNC(=O)/C=C/c4[nH]cc(C(=O)N[C@@H](CC(N)=O)c5ccc(F)c(Cl)c5)c4-c4ccc(Cl)cc4F)ccc3F)cc2NC(=O)c2ccc(F)cc2C(F)(F)F)C[C@H](C)N1C
Observed: thermal unfolding
Technique: differential scanning fluorimetry
Tested at: 5.5 µM
Direction: higher = more unfolded
DCAF1: DDB1- and CUL4-associated factor 1 (DCAF1, Homo sapiens, UniProt Q9Y4B6)
UniProt Q9Y4B6, sequence (whole entry, looked up): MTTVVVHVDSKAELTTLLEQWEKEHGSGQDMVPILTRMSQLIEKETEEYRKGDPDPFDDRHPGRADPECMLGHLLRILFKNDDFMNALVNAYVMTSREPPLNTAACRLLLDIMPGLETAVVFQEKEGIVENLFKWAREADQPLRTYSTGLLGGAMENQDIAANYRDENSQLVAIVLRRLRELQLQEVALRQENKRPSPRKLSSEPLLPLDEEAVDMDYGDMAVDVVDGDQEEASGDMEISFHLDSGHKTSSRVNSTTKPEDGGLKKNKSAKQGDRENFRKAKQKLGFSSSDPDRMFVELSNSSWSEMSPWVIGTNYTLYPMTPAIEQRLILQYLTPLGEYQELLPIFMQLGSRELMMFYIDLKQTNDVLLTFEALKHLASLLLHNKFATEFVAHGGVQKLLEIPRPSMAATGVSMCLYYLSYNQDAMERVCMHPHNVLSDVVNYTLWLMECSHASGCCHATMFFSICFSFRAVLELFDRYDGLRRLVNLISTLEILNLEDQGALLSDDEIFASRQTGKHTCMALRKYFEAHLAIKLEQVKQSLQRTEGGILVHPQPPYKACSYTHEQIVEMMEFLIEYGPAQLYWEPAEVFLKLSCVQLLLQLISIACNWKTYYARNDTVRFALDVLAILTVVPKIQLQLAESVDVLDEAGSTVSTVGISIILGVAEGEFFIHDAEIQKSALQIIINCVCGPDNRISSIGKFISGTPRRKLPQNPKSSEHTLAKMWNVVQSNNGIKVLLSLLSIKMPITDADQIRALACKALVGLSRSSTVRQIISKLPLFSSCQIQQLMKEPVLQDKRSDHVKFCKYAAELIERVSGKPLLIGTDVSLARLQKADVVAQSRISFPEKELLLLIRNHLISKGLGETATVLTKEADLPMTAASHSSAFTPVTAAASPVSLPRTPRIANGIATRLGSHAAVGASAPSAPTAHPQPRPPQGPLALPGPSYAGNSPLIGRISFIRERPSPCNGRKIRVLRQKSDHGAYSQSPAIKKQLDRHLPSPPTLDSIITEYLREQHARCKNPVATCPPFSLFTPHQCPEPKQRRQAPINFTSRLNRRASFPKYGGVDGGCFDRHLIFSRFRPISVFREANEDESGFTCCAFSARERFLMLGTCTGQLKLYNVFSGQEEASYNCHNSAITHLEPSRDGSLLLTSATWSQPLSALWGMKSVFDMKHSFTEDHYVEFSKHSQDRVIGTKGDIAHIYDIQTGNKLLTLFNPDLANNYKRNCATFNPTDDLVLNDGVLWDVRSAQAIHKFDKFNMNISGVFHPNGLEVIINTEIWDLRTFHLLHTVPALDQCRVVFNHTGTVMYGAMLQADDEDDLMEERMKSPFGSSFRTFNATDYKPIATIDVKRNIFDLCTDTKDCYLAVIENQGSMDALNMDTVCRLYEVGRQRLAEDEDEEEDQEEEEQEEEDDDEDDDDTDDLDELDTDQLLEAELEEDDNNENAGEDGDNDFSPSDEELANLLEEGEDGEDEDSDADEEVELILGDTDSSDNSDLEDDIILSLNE
WDR5: WD repeat-containing protein 5 (WDR5, Homo sapiens, UniProt P61964)
target	setting	SYPRO Orange fluorescence
DCAF1	92.21 °C	30700 a.u.
WDR5	80.41 °C	65300 a.u.
WDR5	69.01 °C	24300 a.u.
WDR5	35.6 °C	14000 a.u.
DCAF1	78.81 °C	40700 a.u.
DCAF1	33 °C	9270 a.u.
WDR5	34.4 °C	13800 a.u.
WDR5	28 °C	13500 a.u.
DCAF1	67.41 °C	51000 a.u.
WDR5	31.2 °C	13700 a.u.
WDR5	92.01 °C	51700 a.u.

Block 3
Target: Sodium-dependent neutral amino acid transporter B(0)AT1 (SLC6A19, Homo sapiens, UniProt Q695T7)
UniProt Q695T7, sequence (whole entry, looked up): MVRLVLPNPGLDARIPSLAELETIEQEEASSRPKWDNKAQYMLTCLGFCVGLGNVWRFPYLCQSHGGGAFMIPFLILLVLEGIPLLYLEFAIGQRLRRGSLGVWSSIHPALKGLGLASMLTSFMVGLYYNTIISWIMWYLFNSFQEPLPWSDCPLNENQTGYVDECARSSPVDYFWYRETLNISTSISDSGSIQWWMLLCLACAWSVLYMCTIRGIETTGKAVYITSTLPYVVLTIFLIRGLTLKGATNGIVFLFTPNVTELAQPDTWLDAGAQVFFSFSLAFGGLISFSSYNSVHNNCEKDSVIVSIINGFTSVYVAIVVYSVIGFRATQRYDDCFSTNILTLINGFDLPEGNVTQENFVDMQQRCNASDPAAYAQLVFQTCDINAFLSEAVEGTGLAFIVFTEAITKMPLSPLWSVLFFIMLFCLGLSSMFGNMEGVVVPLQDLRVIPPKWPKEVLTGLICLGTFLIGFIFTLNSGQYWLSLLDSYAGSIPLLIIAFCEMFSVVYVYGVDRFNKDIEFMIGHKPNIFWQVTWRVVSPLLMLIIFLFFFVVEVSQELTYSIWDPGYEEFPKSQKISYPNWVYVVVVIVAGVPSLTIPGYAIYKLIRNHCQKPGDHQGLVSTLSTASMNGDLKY
Action: inhibitor
Technique: L-[14C]leucine uptake
Cells: CHO-BC cells
Tested at: 10 µM
Time: 6 min
Notes: unit not given
With: GPNA 3 mM, JPH203 3 µM
Reference: uninhibited cells
Structure (SMILES)	remaining transport activity
CC(C)NC(=O)COc1ccc(Cl)cc1	0.626
CCCNC(=O)COc1cc(C)c(Cl)c(C)c1	0.286
CCNC(=O)COc1cc(C)c(Cl)c(C)c1	0.11

Block 4
Target: Cyclin-dependent kinase 12, with cyclin K (CDK12, Homo sapiens, UniProt Q9NYV4)
UniProt Q9NYV4, sequence (whole entry, looked up): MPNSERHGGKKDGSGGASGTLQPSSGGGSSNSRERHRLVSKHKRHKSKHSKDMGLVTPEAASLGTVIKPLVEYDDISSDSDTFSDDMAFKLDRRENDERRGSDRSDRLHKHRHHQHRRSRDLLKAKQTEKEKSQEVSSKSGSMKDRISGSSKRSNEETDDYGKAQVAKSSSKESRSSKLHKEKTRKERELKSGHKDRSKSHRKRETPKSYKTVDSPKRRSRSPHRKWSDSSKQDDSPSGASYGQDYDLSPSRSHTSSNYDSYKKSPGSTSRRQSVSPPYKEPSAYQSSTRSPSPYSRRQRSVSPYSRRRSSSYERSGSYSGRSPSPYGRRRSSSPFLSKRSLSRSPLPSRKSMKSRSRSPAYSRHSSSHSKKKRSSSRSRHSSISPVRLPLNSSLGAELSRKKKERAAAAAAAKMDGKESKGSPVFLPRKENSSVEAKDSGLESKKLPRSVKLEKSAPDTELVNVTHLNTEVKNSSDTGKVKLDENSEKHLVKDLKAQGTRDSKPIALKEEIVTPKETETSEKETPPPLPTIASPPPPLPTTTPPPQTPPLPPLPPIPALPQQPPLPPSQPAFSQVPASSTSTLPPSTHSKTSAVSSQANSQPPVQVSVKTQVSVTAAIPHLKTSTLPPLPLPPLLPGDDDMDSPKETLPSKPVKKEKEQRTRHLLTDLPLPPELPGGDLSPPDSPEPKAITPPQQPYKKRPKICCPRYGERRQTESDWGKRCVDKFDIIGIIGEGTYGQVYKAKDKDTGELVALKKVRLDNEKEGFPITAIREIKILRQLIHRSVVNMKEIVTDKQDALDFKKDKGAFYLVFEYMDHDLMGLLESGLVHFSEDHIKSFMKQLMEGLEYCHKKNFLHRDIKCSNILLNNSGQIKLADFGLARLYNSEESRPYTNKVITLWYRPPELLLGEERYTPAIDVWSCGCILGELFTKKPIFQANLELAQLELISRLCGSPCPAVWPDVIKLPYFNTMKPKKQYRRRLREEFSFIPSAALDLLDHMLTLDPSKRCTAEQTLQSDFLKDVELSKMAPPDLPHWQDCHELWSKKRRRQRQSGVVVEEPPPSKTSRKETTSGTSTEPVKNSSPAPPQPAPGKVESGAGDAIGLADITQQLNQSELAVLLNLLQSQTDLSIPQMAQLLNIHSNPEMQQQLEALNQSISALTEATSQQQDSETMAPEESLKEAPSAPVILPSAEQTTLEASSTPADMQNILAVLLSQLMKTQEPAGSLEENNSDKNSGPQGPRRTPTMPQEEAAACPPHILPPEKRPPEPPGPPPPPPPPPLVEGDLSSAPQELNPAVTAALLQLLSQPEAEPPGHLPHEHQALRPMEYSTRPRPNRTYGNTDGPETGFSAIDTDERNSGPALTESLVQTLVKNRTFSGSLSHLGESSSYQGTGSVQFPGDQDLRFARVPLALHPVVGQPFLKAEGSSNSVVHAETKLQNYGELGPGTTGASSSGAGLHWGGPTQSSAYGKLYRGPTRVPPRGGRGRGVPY
Observed: kinase activity
Action: inhibitor
Technique: ADP-Glo
Tested at: 0.2222 µM
Structure (SMILES)	inhibition [%]
CC(=O)N1CCN(c2nc(NCc3nc4cc(Cl)c(Cl)cc4[nH]3)c3ncn(C)c3n2)CC1	24.8
CCn1cnc2c(NCc3nc4cc(F)c(F)cc4[nH]3)nc(N3CCn4ncnc4C3)nc21	48.8
CC(=O)N1CCN(c2nc(NCc3nc4cc(Cl)c(Cl)cc4[nH]3)c3ncn(C(C)C)c3n2)CC1	-1.8
CCn1cnc2c(NCc3nc4cc(Cl)c(Cl)cc4[nH]3)nc(N3CCN(Cc4ccncc4)CC3)nc21	25.9
CCn1cnc2c(NCc3nc4ccc(F)c(F)c4[nH]3)nc(N3CCn4ncnc4C3)nc21	56
CCn1cnc2c(NCc3nc4cc(Cl)c(Cl)cc4[nH]3)nc(N3CCN(C(=O)c4ccccn4)CC3)nc21	56.4
CCn1cnc2c(NCc3nc4cc(Cl)c(Cl)cc4[nH]3)nc(N3CCN(C(=O)c4ccncc4)CC3)nc21	74.2
CCn1cnc2c(NCc3nc4cc(Cl)c(Cl)cc4[nH]3)nc(N3CCN(c4ccccn4)CC3)nc21	51.8
CCn1cnc2c(NCc3nc4cc(Cl)c(Cl)cc4[nH]3)nc(N3CCN(C(=O)[C@H](C)NC(C)=O)CC3)nc21	40.9

A few entries again (block 1):
target or system	test	system	setting	inhibition
PKMYT1	binding, HTRF	–	0.51 nM	7.26% and 12.8%
PKMYT1	enzyme activity, inhibitor	–	0.1111 µM	95.9%
KLE	cell proliferation	–	1111.11 nM	84.2%
